Measured values of several laboratories.
Numbered parts are unrelated; each lists some results of a single study. Several values in a cell are separate wells, animals, samples, runs or records.
Sequence of UniProt P22455 (whole entry, looked up): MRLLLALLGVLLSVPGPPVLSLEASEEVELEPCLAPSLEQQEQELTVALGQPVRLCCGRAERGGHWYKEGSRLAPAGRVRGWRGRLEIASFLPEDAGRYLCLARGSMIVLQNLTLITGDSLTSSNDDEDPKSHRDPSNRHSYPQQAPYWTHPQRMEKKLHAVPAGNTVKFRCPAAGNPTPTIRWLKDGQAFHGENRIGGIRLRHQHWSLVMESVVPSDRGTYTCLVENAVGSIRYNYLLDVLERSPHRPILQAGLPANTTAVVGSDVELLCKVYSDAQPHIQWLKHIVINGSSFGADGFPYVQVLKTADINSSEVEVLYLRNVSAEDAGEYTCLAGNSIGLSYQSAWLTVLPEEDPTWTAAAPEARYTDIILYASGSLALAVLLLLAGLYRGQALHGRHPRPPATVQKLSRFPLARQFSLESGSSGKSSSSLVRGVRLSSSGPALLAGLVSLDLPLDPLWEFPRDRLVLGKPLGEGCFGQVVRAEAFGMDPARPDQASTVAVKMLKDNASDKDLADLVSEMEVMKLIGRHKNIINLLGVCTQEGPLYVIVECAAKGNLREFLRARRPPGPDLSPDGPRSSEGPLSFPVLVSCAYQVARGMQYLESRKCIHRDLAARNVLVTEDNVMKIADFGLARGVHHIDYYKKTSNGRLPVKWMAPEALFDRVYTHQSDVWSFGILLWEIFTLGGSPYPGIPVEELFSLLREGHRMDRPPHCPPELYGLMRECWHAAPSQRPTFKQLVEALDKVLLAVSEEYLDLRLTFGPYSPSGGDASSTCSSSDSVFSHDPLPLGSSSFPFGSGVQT
Sequence of UniProt P37173 (whole entry, looked up): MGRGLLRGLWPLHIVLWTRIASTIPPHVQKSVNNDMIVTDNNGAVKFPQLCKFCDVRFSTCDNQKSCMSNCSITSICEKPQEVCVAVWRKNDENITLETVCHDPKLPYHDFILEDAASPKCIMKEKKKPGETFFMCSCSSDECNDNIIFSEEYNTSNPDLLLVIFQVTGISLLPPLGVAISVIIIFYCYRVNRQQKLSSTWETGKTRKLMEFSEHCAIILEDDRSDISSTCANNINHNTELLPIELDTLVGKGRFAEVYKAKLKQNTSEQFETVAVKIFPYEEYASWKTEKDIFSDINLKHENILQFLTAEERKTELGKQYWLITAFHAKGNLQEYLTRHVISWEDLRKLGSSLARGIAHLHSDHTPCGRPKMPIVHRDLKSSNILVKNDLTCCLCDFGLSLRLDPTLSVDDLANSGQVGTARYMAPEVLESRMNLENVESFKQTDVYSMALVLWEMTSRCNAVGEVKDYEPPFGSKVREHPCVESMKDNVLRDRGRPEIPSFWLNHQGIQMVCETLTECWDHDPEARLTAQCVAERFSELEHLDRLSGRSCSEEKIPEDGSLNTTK
Sequence of UniProt Q9P0L2 (whole entry, looked up): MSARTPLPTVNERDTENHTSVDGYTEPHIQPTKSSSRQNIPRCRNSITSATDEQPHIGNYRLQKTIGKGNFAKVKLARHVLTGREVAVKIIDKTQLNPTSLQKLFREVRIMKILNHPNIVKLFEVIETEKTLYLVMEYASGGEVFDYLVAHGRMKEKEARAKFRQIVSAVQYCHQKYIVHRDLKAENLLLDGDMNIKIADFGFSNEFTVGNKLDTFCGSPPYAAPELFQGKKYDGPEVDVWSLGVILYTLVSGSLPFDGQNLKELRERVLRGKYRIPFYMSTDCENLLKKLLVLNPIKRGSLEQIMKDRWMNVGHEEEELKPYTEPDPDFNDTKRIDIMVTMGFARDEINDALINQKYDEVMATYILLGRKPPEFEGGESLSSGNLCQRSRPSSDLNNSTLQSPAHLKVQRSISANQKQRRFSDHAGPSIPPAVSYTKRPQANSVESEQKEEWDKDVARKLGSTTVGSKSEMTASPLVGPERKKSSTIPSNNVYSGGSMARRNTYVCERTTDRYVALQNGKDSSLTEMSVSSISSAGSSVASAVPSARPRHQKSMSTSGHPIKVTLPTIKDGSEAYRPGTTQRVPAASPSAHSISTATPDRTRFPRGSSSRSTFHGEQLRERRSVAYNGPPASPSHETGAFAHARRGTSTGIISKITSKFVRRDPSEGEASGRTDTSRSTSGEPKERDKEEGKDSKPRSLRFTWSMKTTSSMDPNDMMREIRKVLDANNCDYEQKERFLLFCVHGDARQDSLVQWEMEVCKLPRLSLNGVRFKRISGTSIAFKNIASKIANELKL
Sequence of UniProt O43293 (whole entry, looked up): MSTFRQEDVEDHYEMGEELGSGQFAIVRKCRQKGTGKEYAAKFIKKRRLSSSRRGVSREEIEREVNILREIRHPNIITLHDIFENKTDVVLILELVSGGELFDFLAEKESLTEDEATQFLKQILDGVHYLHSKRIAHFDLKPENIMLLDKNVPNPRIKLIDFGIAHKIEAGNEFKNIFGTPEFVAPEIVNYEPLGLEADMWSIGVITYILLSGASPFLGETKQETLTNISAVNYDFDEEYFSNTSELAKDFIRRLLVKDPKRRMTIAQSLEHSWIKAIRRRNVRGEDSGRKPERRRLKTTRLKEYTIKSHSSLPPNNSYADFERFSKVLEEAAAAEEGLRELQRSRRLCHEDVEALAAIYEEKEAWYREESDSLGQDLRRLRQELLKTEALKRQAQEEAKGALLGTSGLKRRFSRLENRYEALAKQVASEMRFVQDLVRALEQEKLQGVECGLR
Sequence of UniProt P57078 (whole entry, looked up): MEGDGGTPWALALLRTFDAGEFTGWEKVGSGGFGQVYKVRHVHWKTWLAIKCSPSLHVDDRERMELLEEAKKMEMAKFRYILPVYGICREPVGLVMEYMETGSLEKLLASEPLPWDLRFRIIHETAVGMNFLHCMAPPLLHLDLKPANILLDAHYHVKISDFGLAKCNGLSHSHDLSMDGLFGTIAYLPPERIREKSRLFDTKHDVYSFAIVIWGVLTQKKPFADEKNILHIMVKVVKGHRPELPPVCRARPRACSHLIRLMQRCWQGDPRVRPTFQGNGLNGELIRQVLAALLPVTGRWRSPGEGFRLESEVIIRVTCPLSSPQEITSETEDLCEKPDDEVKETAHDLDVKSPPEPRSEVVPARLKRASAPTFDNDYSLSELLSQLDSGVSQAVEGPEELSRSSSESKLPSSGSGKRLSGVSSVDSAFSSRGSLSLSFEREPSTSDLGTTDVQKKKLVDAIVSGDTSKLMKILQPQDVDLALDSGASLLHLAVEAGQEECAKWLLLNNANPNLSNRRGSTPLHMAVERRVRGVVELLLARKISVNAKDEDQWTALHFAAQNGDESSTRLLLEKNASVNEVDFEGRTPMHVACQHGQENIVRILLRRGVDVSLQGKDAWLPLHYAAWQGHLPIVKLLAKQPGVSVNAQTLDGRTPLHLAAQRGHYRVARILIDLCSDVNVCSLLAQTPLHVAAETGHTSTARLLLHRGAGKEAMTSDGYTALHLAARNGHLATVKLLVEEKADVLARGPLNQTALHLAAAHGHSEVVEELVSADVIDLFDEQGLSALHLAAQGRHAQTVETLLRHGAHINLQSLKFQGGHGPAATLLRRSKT

Block 1
SMILES: CNc1ncc2cc(-c3cc(OC)cc(OC)c3Cl)c(=O)n(CCc3ccc(NC(=O)C(C#N)=CC(C)(C)N4CCOCC4)cc3)c2n1
Measurement: inhibition
Non-receptor tyrosine-protein kinase TYK2 (TYK2, Homo sapiens, UniProt P29597); kinase activity; 0.1 µM: 0%
Fibroblast growth factor receptor 4 (FGFR4, Homo sapiens, UniProt P22455); kinase activity; 1 µM: > 90% and 94%
CK1; 1 µM, mean: -1%
Ribosomal protein S6 kinase alpha-1 (RPS6KA1, Homo sapiens, UniProt Q15418); kinase activity; 0.1 µM: -2%
Serine/threonine-protein kinase Sgk1 (SGK1, Homo sapiens, UniProt O00141); kinase activity; 0.1 µM: -2%
Hepatocyte growth factor receptor (MET, Homo sapiens, UniProt P08581); kinase activity; 1 µM: 2%
Serine/threonine-protein kinase MARK1 (MARK1, Homo sapiens, UniProt Q9P0L2); kinase activity; 0.1 µM: 1%
Phosphatidylinositol 4,5-bisphosphate 3-kinase catalytic subunit delta isoform (PIK3CD, Homo sapiens, UniProt O00329); kinase activity; 1 µM: 8%

Block 2
SMILES: O=C(Nc1ccccc1)Nc1cccc(Oc2ccc3nccn3n2)c1
Effect on: binding
Concentration: 1 µM
Measurement: remaining binding
Mitogen-activated protein kinase 15 (MAPK15, Homo sapiens, UniProt Q8TD08); competition with immobilised ligand: 100%
Receptor-type tyrosine-protein kinase FLT3 (FLT3, Homo sapiens, UniProt P36888, D835Y): 100%
Death-associated protein kinase 3 (DAPK3, Homo sapiens, UniProt O43293): 100%
Receptor-interacting serine/threonine-protein kinase 4 (RIPK4, Homo sapiens, UniProt P57078): 100%
Proto-oncogene tyrosine-protein kinase Src (SRC, Homo sapiens, UniProt P12931); competition with immobilised ligand: 100%
TGF-beta receptor type-2 (TGFBR2, Homo sapiens, UniProt P37173); competition with immobilised ligand: 91%
Ribosomal protein S6 kinase alpha-5, C-terminal kinase domain (RPS6KA5, Homo sapiens, UniProt O75582); competition with immobilised ligand: 100%
Insulin receptor-related protein (INSRR, Homo sapiens, UniProt P14616): 100%

Further values, each from its own experiment
C#Cc1cccc2cc(O)cc(-c3ncc4c(N5CC6CCC(C5)N6)nc(OCC56CCCN5CCC6)nc4c3F)c12
IC50 (GTPase KRas (KRAS, Homo sapiens, UniProt P01116, G12V); target engagement in cells, BRET): 0.7 µM

Cn1cc(-c2cccc(CN3CCC4(CC3)COc3c4ccc4c3CN([C@H]3CCC(=O)NC3=O)C4=O)c2)cn1
viability (HepG2; concentration not given; relative to: vehicle): 82.3%

CN1CCC[C@H]1COc1nc2c(c(N3CCN(C(=O)C4CC4)[C@@H](CC#N)C3)n1)CCN(c1cccc3cccc(Cl)c13)C2
normalized BRET (GTPase KRas (KRAS, Homo sapiens, UniProt P01116, Q61L); binding, competitor, NanoBRET; HEK293; 3.7 µM): 57.7% and 55.1% and 45.6%

CN1CCC[C@H]1COc1nc2c(c(N3CCN(C(=O)C(F)(F)F)[C@@H](CC#N)C3)n1)CCN(c1cccc3cccc(Cl)c13)C2
IC50 (GTPase KRas (KRAS, Homo sapiens, UniProt P01116, G13D); target engagement in cells, BRET): 6 µM

C=CC(=O)N1CCN(c2nc(OC[C@@H]3CCCN3C)nc3c2CCN(c2cccc4cccc(C)c24)C3)C[C@@H]1CC#N
normalized BRET (GTPase KRas (KRAS, Homo sapiens, UniProt P01116, G12D); binding, competitor, NanoBRET; HEK293; 3.05 nM): 94% and 94.8%

A few entries again (block 1):
Non-receptor tyrosine-protein kinase TYK2 (TYK2, Homo sapiens, UniProt P29597); kinase activity; 0.1 µM: 0%
